Assay results pooled from the literature.
Numbered parts are unrelated; each lists some results of a single study. Positions count from the first letter of the parent shown.

Study 1 — technique: RNA Bind-n-Seq; form: RNA; matrix: in vitro; concentration: not given; notes: RNA with constant flanks, ends assumed; relative to: input RNA pool; reading: higher = stronger binding; quantity: bound/input enrichment
Target: RING finger protein unkempt homolog, zinc fingers 1-6, GST-SBP tag (UNK, Homo sapiens, UniProt Q9C0B0, residues 30-357)
Sequence of UniProt Q9C0B0 (30-357, looked up): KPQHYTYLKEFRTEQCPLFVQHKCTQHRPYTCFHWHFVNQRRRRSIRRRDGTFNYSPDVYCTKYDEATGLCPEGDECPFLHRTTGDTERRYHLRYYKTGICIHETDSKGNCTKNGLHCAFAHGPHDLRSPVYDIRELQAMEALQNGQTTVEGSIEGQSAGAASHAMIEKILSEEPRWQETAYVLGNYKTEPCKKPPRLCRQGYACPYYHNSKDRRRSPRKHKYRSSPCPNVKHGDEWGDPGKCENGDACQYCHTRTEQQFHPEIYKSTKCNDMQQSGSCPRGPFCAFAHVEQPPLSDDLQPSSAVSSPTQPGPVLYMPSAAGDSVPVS
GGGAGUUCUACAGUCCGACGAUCCUCAGUGAUCACACACGAAAUUCUGCCGAAGGCACAGAAUAUUUCAAAAUGCUUGCCGACGUUUUUGCUCCAGAAUUUCGAAGGCCAAAGAAUAUACAUCUCCGAAAUUUCUAUAUAAUUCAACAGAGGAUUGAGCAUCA: 0.319 ratio
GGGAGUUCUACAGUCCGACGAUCGGAACCUGCCGGGGCAGCGGACGUUGGAAGGGCGCUGGGCCUCGGCUGGGACCGUUCAUGCCGCAGCAACCGGCGGCGGCUGCCGCAGAGCAGCGUUCGGUUUUGUUUUUAAAUUUUGAACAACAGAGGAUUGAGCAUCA: 0.144 ratio
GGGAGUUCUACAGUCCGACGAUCUCAACUGACAACAUCAAAUACCAGCCUAAGGGGGGUCAGGUACAAAUUGUUACUAAGAAGACCGACUUAAGCCAUGUGACAUCCAAAUGUGGCUCUCUAAAGAACAUCCGUCACAGGCCACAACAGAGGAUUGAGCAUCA: 0.132 ratio
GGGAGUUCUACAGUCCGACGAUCUGCCACCAUACCCAAUGGAUAGAACUUGAUUUUUAAAAGCUUGUUUUGUCAACUUGUAUGCCGUACAGUGGCCAGUGAUCGCCUAGCCUGCACGAGGCCCCGGGGUUGAUCUCCCGCAUCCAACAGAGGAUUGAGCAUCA: 0.245 ratio
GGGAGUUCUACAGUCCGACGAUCAUCUUUAUCUCACAAGAUGAAAUACAGUCAUUUAUGGCUAAUAACCAGUCUUUCUACAGCAACCGAGAACAAUACCGACAGCAUCUGAAGGAGAAAUUUAAUAAAUACUGCCGGUUAAAUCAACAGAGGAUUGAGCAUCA: 0.182 ratio
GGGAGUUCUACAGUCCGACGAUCUCUUGGGCAGAAGAGACAAACUCAAUGUUAAAAUCUCUAGGAGUGACCACGAAGUUUCACCGUUUUCCAAAUGUUUACCAUGAGCUAAGCAAAACUGAGUUAGACAUAUUGAAGUUAUGGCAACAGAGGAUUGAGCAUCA: 0.278 ratio

Study 2 — technique: protein-binding microarray; form: double-stranded DNA, one strand shown; matrix: in vitro; concentration: 250 nM; notes: 60-bp whole probe; with: salmon DNA 0.4 mg/ml; relative to: random background probes; reading: higher = stronger binding; quantity: log fluorescence; constant ends, left off below: GCCTAGCAC … GTCTTGATTCGCTTGACGCTGCTG
Target: Interferon regulatory factor 7, full length, phosphomimetic (IRF7, Homo sapiens, UniProt Q92985, residues 1-503, S101K/S471D/S472D/S475D/S476D/S477D/S483D/S484D/S487D)
Target sequence (chain): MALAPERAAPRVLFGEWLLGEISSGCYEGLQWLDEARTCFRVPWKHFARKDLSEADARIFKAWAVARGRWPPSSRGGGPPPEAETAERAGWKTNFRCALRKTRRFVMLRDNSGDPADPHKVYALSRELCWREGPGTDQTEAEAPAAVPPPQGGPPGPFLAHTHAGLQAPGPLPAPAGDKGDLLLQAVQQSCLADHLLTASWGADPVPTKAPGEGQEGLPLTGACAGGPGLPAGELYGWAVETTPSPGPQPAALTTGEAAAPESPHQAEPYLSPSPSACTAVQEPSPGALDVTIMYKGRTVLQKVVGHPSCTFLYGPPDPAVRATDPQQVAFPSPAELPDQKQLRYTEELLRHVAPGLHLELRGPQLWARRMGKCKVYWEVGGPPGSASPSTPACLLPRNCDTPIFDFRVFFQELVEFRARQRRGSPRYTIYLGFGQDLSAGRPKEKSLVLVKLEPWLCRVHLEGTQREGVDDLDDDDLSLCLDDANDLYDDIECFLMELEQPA
GACGGCTTCGGGTTTCGGGACGTGCTA: 1.8 z-score
GACGGTCTCGGTATCGGGAGGTGCTAG: 1.71 z-score
GTATATATAATATATATTCATGTGCTA: 0.401 z-score
TCATGTGTGTGTATGTGACTGTGCTAG: -0.552 z-score
TCATTTCCCTATTATATAACTGTGCTA: 4.46 z-score
TGTCCTTTCTCCATGGGTATGTGCTAG: 1.83 z-score
TCCTCTTTACTGCTCCACACGTGCTAG: 0.971 z-score
TCTCCTCCCCCTCTGCCACCGTGCTAG: 0.0822 z-score
GACGGTATCGGGTTACGGGACGTGCTA: 2.62 z-score
TTAGGTTTCGGGTTTGGGTTAGTGCTA: 10.5 z-score
GACTATTTCGGGTATCGAGACGTGCTA: 1.3 z-score
TTAGGTATACTTATCCTTTAGTGCTAG: -0.149 z-score
GAGATCATCCGTTTCTTCTAGTGCTAG: 0.732 z-score
TTAGATATCGGTTTTCGATTAGTGCTA: 3.42 z-score
CTAGATTTCAGTATCGATTAGTGCTAG: 1.5 z-score
GACGGTCTCGGACTGGGTACGTGCTAG: 0.172 z-score
TTAGAACTGGGGTATCTATTAGTGCTA: -0.152 z-score
GACGATTTCAGTTTCGAGAGGTGCTAG: 3.19 z-score

Study 3 — target: CCNA1, cyclin fold, Cln2 fusion (human); technique: yeast growth competition, sequencing; matrix: yeast; notes: strong parent motif; relative to: not given; reading: higher = stronger binding; quantity: normalised enrichment score
Parent: RBL2 docking peptide (human); STTRRRLFVENDS; partner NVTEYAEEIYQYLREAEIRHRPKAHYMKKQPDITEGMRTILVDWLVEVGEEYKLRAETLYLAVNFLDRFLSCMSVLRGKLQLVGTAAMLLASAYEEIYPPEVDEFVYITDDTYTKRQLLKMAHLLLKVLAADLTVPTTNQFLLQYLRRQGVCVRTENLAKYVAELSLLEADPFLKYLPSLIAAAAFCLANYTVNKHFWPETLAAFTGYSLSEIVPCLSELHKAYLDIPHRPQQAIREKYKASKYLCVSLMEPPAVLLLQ
T3P: 0.0743
V9K: 0.444
D12A: 0.353
R5T: 0.896
L7E: 0.321
F8P: 0.498
R6I: 0.45
D12V: 0.616
S1A: 0.675
T2S: 0.445
L7T: 0.524
T2K: 0.838
S1L: 0.531

Study 4 — technique: DHFR PCA, deep sequencing; matrix: yeast; with: (+)-ABA 200 µM; relative to: wild-type fitted maximum; reading: higher = stronger binding; quantity: relative binding score
Target: ABI1, truncated, D143A, DHFR fusion (Arabidopsis thaliana)
Notes: methotrexate growth selection, single substitutions
Parent: PYL1, truncated, DHFR fusion (Arabidopsis thaliana); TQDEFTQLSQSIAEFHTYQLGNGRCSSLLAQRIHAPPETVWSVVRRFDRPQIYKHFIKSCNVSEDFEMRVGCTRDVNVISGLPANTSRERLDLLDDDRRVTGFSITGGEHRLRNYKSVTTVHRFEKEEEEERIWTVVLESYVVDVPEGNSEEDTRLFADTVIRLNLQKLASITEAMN
A175W: 83.8%
T106V: 108%
D3F: 92.2%
E131K: 114%
D144T: 78.2%
F66L: 92.4%
L164P: -5.96%
F5H: 89.4%
P50A: 35.6%
Q2T: 99.2%
G102N: 2.49%
H16R: 2.38%
H34Y: 94.8%
R98C: 94.5%
T135N: 7.65%
N85R: 105%

Repeated from above (study 1):
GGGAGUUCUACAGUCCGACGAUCCUCAGUGAUCACACACGAAAUUCUGCCGAAGGCACAGAAUAUUUCAAAAUGCUUGCCGACGUUUUUGCUCCAGAAUUUCGAAGGCCAAAGAAUAUACAUCUCCGAAAUUUCUAUAUAAUUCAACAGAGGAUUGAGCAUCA: 0.319 ratio
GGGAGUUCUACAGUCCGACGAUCGGAACCUGCCGGGGCAGCGGACGUUGGAAGGGCGCUGGGCCUCGGCUGGGACCGUUCAUGCCGCAGCAACCGGCGGCGGCUGCCGCAGAGCAGCGUUCGGUUUUGUUUUUAAAUUUUGAACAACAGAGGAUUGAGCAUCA: 0.144 ratio
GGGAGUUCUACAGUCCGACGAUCUCAACUGACAACAUCAAAUACCAGCCUAAGGGGGGUCAGGUACAAAUUGUUACUAAGAAGACCGACUUAAGCCAUGUGACAUCCAAAUGUGGCUCUCUAAAGAACAUCCGUCACAGGCCACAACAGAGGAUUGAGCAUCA: 0.132 ratio
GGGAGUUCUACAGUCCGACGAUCUGCCACCAUACCCAAUGGAUAGAACUUGAUUUUUAAAAGCUUGUUUUGUCAACUUGUAUGCCGUACAGUGGCCAGUGAUCGCCUAGCCUGCACGAGGCCCCGGGGUUGAUCUCCCGCAUCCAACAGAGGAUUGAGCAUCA: 0.245 ratio
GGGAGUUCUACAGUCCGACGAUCAUCUUUAUCUCACAAGAUGAAAUACAGUCAUUUAUGGCUAAUAACCAGUCUUUCUACAGCAACCGAGAACAAUACCGACAGCAUCUGAAGGAGAAAUUUAAUAAAUACUGCCGGUUAAAUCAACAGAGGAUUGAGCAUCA: 0.182 ratio
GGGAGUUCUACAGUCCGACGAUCUCUUGGGCAGAAGAGACAAACUCAAUGUUAAAAUCUCUAGGAGUGACCACGAAGUUUCACCGUUUUCCAAAUGUUUACCAUGAGCUAAGCAAAACUGAGUUAGACAUAUUGAAGUUAUGGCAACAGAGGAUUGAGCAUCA: 0.278 ratio
